# Experimental data pooled from the literature.
# ± marks the error that the study gave.
# Target: Sodium-dependent serotonin transporter (Slc6a4, Rattus norvegicus, UniProt P31652)
# UniProt P31652, sequence (whole entry, looked up): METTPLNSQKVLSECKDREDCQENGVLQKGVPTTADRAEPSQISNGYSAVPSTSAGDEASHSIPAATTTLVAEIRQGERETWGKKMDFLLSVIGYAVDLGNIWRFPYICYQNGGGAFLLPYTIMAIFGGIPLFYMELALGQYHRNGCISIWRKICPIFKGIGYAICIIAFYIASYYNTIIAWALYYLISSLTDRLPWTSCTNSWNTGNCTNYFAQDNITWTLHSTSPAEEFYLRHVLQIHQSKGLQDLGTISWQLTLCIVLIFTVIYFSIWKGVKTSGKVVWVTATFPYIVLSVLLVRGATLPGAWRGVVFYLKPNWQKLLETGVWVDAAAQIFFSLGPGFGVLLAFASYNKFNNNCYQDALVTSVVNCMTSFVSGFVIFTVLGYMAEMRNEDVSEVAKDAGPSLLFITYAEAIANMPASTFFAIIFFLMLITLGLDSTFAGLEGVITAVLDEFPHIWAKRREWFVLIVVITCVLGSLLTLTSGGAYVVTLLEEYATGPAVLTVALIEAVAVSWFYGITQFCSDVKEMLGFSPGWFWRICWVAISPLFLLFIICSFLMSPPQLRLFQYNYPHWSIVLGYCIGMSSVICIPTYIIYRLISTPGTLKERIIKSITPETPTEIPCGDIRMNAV
Structure (SMILES),assay,test system,conditions,measurement,result
CCN(CC)CCc1c[nH]c2ccccc12,inhibitor,,,IC50,0.258 ± 0.013 µM
Cc1ccc([C@H]2OC(N)=N[C@H]2C)cc1 (relative stereo),"substrate release, releaser",rat brain synaptosomes,together with: [3H]5-HT 5 nM,EC50,0.0177 ± 0.0023 µM
CC(C)N(CCc1c[nH]c2ccccc12)C(C)C,inhibitor,,,IC50,0.288 ± 0.0023 µM
CNC(C)Cc1ccc2occc2c1 (stereo not drawn),"transporter-mediated release, substrate",rat brain synaptosomes,"5 min, together with: [3H]5-HT",EC50,0.064 ± 0.007 µM
CCCC(NC)C(=O)c1ccc2c(c1)OCO2 (stereo not drawn),"transporter uptake, inhibitor, radiometric",,,IC50,1.2 µM
C[C@@H]1N=C(N)O[C@@H]1c1ccc2c(c1)OCO2 (racemic),"substrate release, releaser",rat brain synaptosomes,together with: [3H]5-HT 5 nM,EC50,0.0439 ± 0.0067 µM
CCCN(CCC)CCc1c[nH]c2ccccc12,inhibitor,,,IC50,0.157 ± 0.016 µM
CCC[C@@H](C(=O)c1ccccc1)N1CCCC1,"transporter uptake, inhibitor, radiometric",,,IC50,> 10 µM
CNC(C)C(=O)c1cccc(Cl)c1 (stereo not drawn),"substrate release, releaser",rat brain synaptosomes,together with: [3H]5-HT,EC50,0.211 µM
COC(=O)[C@H]1C(c2ccc(I)cc2)C[C@@H]2CC[C@H]1N2C (stereo partly drawn),"serotonin reuptake, inhibitor",rat brain synaptosomes,,IC50,0.00111 µM
CNC(C)C(=O)c1ccccc1 (stereo not drawn),"substrate release, releaser",rat brain synaptosomes,together with: [3H]5-HT,EC50,5.85 µM
CCN(CC)CCc1c[nH]c2ccc(OC)cc12,inhibitor,,,IC50,2.41 ± 0.222 µM
"CNC(C)Cc1ccc2c(c1)OCO2 (single isomer, unassigned; (+))","substrate release, releaser",rat brain synaptosomes,together with: [3H]5-HT 5 nM,EC50,0.085 ± 0.0133 µM
CC(C)NCCc1c[nH]c2ccccc12,inhibitor,,,IC50,1.49 ± 0.093 µM
COC(=O)[C@H]1[C@@H](c2ccc(SC(C)C)cc2)C[C@@H]2CC[C@H]1N2C,,,,Ki,0.023 ± 0.002 µM
COC(=O)[C@H]1[C@@H](c2ccc(Cl)c(Cl)c2)C[C@@H]2CC[C@H]1N2CCOCCOCCOCCOCCOCCNC(=O)c1ccc2c(c1)C1(OC2=O)c2ccc(N3CCC3)cc2[Si](C)(C)c2cc(N3CCC3)ccc21,"ligand displacement, radioligand",,cell membranes,Ki,0.043 µM
COC(=O)[C@H]1[C@@H](c2ccc(SC(F)(F)F)cc2)C[C@@H]2CC[C@H]1N2C,,,,Ki,0.008 ± 0.002 µM
C[C@@H]1N=C(N)O[C@@H]1c1ccccc1 (racemic),"substrate release, releaser, [3H]5-HT release",rat brain synaptosomes,together with: [3H]5-HT 5 nM,EC50,0.0532 ± 0.0068 µM

# A few entries again:
Structure (SMILES),assay,test system,conditions,measurement,result
CNC(C)Cc1ccc2occc2c1 (stereo not drawn),"transporter-mediated release, substrate",rat brain synaptosomes,"5 min, together with: [3H]5-HT",EC50,0.064 ± 0.007 µM
